Assay results from different studies.
Lines come from different studies, so protocols differ. ± marks the error that the study gave.
Cell line: MCF7

SMILES | read-out | method | time | setting | IC50
CSC(=N/N=C(\C)c1ccc(S(=O)(=O)N2CCC(C)CC2)cc1)SC | cell growth or viability | MTT | – | – | 18.8 µM
CCCCCCCCCCCCCCCOC(=O)/C=C/c1ccc(OC)c(O)c1 | cell viability | MTT | 48 h | serum-free medium | 2.8 ± 0.2 µg/mL
N#C[CH2][Pd]1[O]c2ccc(Br)cc2C=Nc2cccnc2[N]1Cc1ccccc1 | cell growth or viability | MTT | 48 h | – | 24.4 µM
CCOC(=O)C/C(C)=N/NC(=O)c1nc2ccccc2n(C)c1=O | cell growth or viability | MTT | 48 h | – | 10.5 µM
COc1ccc2cc3[n+](cc2c1OCc1cn(Cc2ccc(F)cc2Br)nn1)CCc1cc2c(cc1-3)OCO2 | cell growth or viability | MTT | – | – | 59.6 µM
CC(=O)O[C@H]1C[C@H](O[C@H]2[C@@H](O)C[C@H](O[C@H]3[C@@H](O)C[C@H](O[C@H]4CC[C@@]5(C)[C@H](CC[C@@H]6[C@@H]5CC[C@]5(C)[C@@H](C7=CC(=O)OC7)CC[C@]65O)C4)O[C@@H]3C)O[C@@H]2C)O[C@H](C)[C@H]1O[C@@H]1O[C@H](CO)[C@@H](O[C@@H]2O[C@H](CO)[C@@H](O)[C@H](O)[C@H]2O)[C@H](O)[C@H]1O | cell growth or viability | MTT | 48 h | – | 0.22 µM
C[S+](C)([O-])[Pt-2]([Cl])([Cl])[N+](=Cc1ccc[nH]1)Cc1ccccc1 | cell growth or viability | MTT | 24 h | – | 23.3 µg/mL
CCCCCCCCn1c(-c2cccnc2)nc(-c2ccc(C)cc2)c1-c1ccc(C)cc1 | cell growth or viability | SRB | 24 h | – | 92.1 µM
CC(C)(C)c1cc2c(O)c(c1)Cc1cc(C(C)(C)C)cc(c1OCC(=O)NCc1ccncc1)Cc1cc(C(C)(C)C)cc(c1O)Cc1cc(C(C)(C)C)cc(c1OCC(=O)NCc1ccncc1)COC2 | cell growth or viability | MTT | 72 h | – | 1.2 µM
CCC(C(=O)O)C1CCC(C)C(C(C)C(O)C(C)C(=O)C(CC)C2OC3(C=CC(NCc4cn(CSc5ccccc5)nn4)C4(CCC(C)(C5CCC(O)(CC)C(C)O5)O4)O3)C(C)CC2C)O1 (stereo not drawn) | cell growth or viability | resazurin | 72 h | – | 0.1 µM
C[C@@H]1CC[C@@H]([C@](O)(CNCc2cccc(F)c2)COCc2ccccc2)[C@H](OCc2ccccc2)C1 | cell growth or viability | MTT | 72 h | – | 1.1 µM
Cc1ccc(CN2C(=O)/C(=N\c3ccc(Cl)cc3Br)c3ccccc32)cc1 | cell growth or viability | MTT | 48 h | – | 3.04 µM
CCOc1cccc(/C=N/CCNc2ccccc2)c1O | cell growth or viability | MTT | 48 h | – | 155 µM
CC1(C)CC(=O)C2=C(C1)OC(N)=C(C#N)C2c1ccccc1F (stereo not drawn) | cell growth or viability | MTT | 24 h | – | 225 µM
NNC(=O)Cn1ncc2c3ccccc3n(CC(=O)NN)c2c1=O | cell growth or viability | MTT | 48 h | – | 5.35 µM
Cc1c(C)c(C)[c-](C)c1C.OCc1ccnc(-c2[c-]cccc2)c1.[Cl-].[Ir+3] | – | SRB | 24 h | 72 h recovery | 47 ± 2 µM
CCCCCCCCn1c(-c2cccnc2)nc(-c2ccccc2)c1-c1ccccc1 | cell growth or viability | SRB | 48 h | – | > 100 µM
C=CC(OC(C)=O)c1ccc(OC(C)=O)c(OC)c1 (stereo not drawn) | cell growth or viability | MTT | 24 h | – | 25.2 µM
[Cl][Au].[Se]=c1n(C23CC4CC(CC(C4)C2)C3)ccn1C12CC3CC(CC(C3)C1)C2 | cell growth or viability | MTT | 72 h | – | 2.7 µM
O=C(NCCCNc1n[n+]([O-])c2ccccc2[n+]1[O-])C(F)(F)F | cytotoxicity | MTT | 24 h | normoxia | 165 ± 10.2 µM
CSc1nc(Nc2ccc(/C(C)=N/NC(=O)c3ccccc3Cl)cc2)c(C#N)c(-c2ccccc2)n1 | cell growth or viability | MTT | 48 h | – | 13.5 µM
O=C(Cc1ccccc1)NC(=S)Nc1nccs1 | cell growth or viability | MTT | 48 h | – | 55.4 µM
CC(=O)[O-].O.O.O.O.[Ni+2].[O-]c1ccc(Br)cc1C=NCCN1CCOCC1 | cell viability | MTT | 72 h | – | 24.1 µg/mL
CC/C(=C(\c1ccccc1)c1ccc(OCCN(C)CCCCCCC(=O)NCCc2c[nH]c3ccc(OC)cc23)cc1)c1ccccc1 | cell survival | MTT | day 9 | dosed days 2, 4, 7 | 12.4 µM
CSc1nc(Nc2cccc(/C(C)=N/NC(=O)c3cccc(Cl)c3)c2)c(C#N)c(-c2ccccc2)n1 | cell growth or viability | MTT | 48 h | – | 10.2 µM
COc1cc(OC)c2c(c1)OCC(c1cc(OC)c(OC)cc1OC)C2=NO (stereo not drawn) | cell growth or viability | MTT | 72 h | – | 110 µM
O=C(CN1CCN(c2nsc3ccccc23)CC1)N1CCC(=C2c3ncccc3CCc3cc(Cl)cc(Br)c32)CC1 | cell growth or viability | SRB | – | – | 22 µM

SMILES | read-out | method | time | setting | IC50
C=C(C)C(O)C(O)CC(C)C1CCC23CC12CCC1C2(C)CCC(O)C(C)(C)C2CC(OC(C)=O)C13C (stereo not drawn) | cell growth or viability | MTT | – | – | > 10 µM
CCCCCCCCCCCCCCOc1c(O)cc(C(=O)O[C@@H]2Cc3c(O)cc(O)cc3O[C@@H]2c2cc(O)c(O)c(O)c2)cc1O | cell growth or viability | CCK-8 | 24 h | – | 41.7 µM
CN(C)c1ccc(C=NNC(=O)CSc2nc(N)cc(N3C(=O)c4ccccc4C3=O)n2)cc1 | cell growth | – | 24 (unit not given) | – | 26.5 ± 1.8 µM
N=c1c2sc3sc4c(=N)n(-c5ccccc5)c(=S)[nH]c4c3c2[nH]c(=S)n1-c1ccccc1 | cell growth or viability | MTT | – | – | 15.3 µM
c1ccc(-c2nc(-c3cccnc3)[nH]c2-c2ccccc2)cc1 | cell growth or viability | SRB | 48 h | – | > 100 µM
Cc1c(C(=O)NNC(=S)Nc2ccc(Cl)cc2)nnn1Cc1nc2ccccc2[nH]1 | – | – | 48 h | – | 6.81 ± 0.4 µM
COc1c(O)cc2oc3cc(O)c4c(c3c(=O)c2c1CCC(C)(C)O)OC(C)(C)CC4 | cell growth or viability | – | 48 h | – | > 40 µM
C=CC(=C)CC[C@]1(C)[C@H](C)CC[C@@]23C(=C[C@H](OC(=O)C(C)C)C[C@@H]12)[C@@H](OC(C)=O)O[C@H]3OC(C)=O | cell growth or viability | SRB | – | – | 26.2 µM
CCN1CCC2(CC1)C/C(=N\NC(=O)Nc1ccc([N+](=O)[O-])cc1)c1ccccc1O2 | cell growth or viability | MTT | 48 h | – | 56.8 µM
O=C(NNc1nc(-c2ccccc2)cs1)c1cc2c(ccc3ccccc32)oc1=O | cell growth or viability | SRB | 72 h | – | 105 µM
CCn1c(-c2ccccc2)cs/c1=N/N=C(\C)c1c(O)c2ccccc2oc1=O | cell growth or viability | MTT | 48 h | – | 25.9 µM
N=C(N)NCCC[C@@H](N)C(=O)N[C@@H](CC(=O)N[C@H](Cc1ccccc1)C(N)=O)c1ccc2ccccc2c1 | cell growth or viability | ATP luminescence | 72 h | – | 0.266 µM
CS/C(=N/N=C(\C)c1ccc(S(=O)(=O)N2CCC(C)CC2)cc1)SCc1ccccc1 | cell growth or viability | MTT | – | – | 78.1 µM
NS(=O)(=O)c1ccc(/N=N/c2ccc(O)c(/C=N/c3cc(Cl)ccc3O)c2)cc1 | cell growth or viability | MTT | 72 h | – | 5 µM
COc1ccc2cc3[n+](cc2c1OCc1cn(Cc2ccc(S(C)(=O)=O)cc2)nn1)CCc1cc2c(cc1-3)OCO2 | cell growth or viability | MTT | – | – | 207 µM
COc1c(OC(C)=O)cc2oc3cc(OC(C)=O)c(CC=C(C)C)c(O)c3c(=O)c2c1CC=C(C)C | cell growth or viability | – | 48 h | – | 16.6 µM
CC(=O)O[C@H]1CC[C@]2(C)[C@H]3CC=C4[C@@H]5CC(C)(C)CC[C@]5(CO)CC[C@@]4(C)[C@]3(C)CC[C@H]2C1(C)C | cell growth or viability | SRB | – | – | 86.6 µM
CC1=NN(C2=NC(=O)CS2)C(c2ccccc2)C1 (stereo not drawn) | cell growth or viability | LDH | 48 h | – | 8.3 µM
CCCC/C=N/NC(=O)c1cc2cc(Nc3nccc(-c4cccnc4)n3)ccc2[nH]1 | cell growth or viability | MTT | 48 h | – | > 20 µM
Cc1cc(=O)[nH]c2c(/N=N/c3ccccc3)c(O)c(/N=N/c3ccccc3)cc12 | cell growth or viability | MTT | – | – | 19.8 µg/mL
Cc1cc(-c2ccccc2)c2ccc3c(-c4ccccc4)cc(C)[n+]4c3c2[n+]1[Re-2]4(=[C]=O)(=[C]=O)(=[C]=O)[O]C(=O)c1cccnc1 | cell growth or viability | resazurin | 72 h | – | 1.33 µM
N=C(N)NCCC[C@H](N)C(=O)N[C@@H](Cc1ccc(O)cc1)C(=O)N[C@@H](Cc1c[nH]c2ccccc12)C(=O)N[C@@H](Cc1ccc(O)cc1)C(=O)NCC(N)=O | – | – | – | – | > 100 µM
COc1ccc(/C(=C(/CCn2cc(CN3C(=O)C(=O)c4ccccc43)nn2)c2ccccc2)c2ccccc2)cc1 | cell growth or viability | MTT | – | – | > 100 µM
COc1cc(/C=C/C(=O)/C=C(O)/C=C/c2ccc(OCC(=O)N3CCOCCOCCOCCOCCOCC3)c(OC)c2)ccc1OCC(=O)N1CCOCCOCCOCCOCCOCC1 | cell growth or viability | SRB | – | – | 4.8 µM
CCCCCCCCn1c2ccccc2c2cc(-c3cn(-c4ccc(-c5cc(-c6ccccn6)nc(-c6ccccn6)c5)cc4)nn3)ccc21 | cell growth or viability | MTS | 72 h | – | 9.96 µM
C[C@@H]1CC[C@@H]([C@@](O)(CNCc2ccc(F)cc2)COCc2ccc(F)cc2)[C@H](OCc2ccc(F)cc2)C1 | cell growth or viability | MTT | 72 h | – | 0.91 µM
CC(=O)Oc1c(/N=N/c2ccccc2)cc(Br)cc1-c1cnc2ccccc2n1 | cell growth or viability | MTT | 48 h | – | 17.3 µM

Excerpt of the above:
SMILES | read-out | method | time | setting | IC50
COc1c(O)cc2oc3cc(O)c4c(c3c(=O)c2c1CCC(C)(C)O)OC(C)(C)CC4 | cell growth or viability | – | 48 h | – | > 40 µM
COc1ccc2cc3[n+](cc2c1OCc1cn(Cc2ccc(S(C)(=O)=O)cc2)nn1)CCc1cc2c(cc1-3)OCO2 | cell growth or viability | MTT | – | – | 207 µM
CCCCCCCCn1c(-c2cccnc2)nc(-c2ccc(C)cc2)c1-c1ccc(C)cc1 | cell growth or viability | SRB | 24 h | – | 92.1 µM
CCCCCCCCCCCCCCOc1c(O)cc(C(=O)O[C@@H]2Cc3c(O)cc(O)cc3O[C@@H]2c2cc(O)c(O)c(O)c2)cc1O | cell growth or viability | CCK-8 | 24 h | – | 41.7 µM
C=CC(OC(C)=O)c1ccc(OC(C)=O)c(OC)c1 (stereo not drawn) | cell growth or viability | MTT | 24 h | – | 25.2 µM
O=C(NCCCNc1n[n+]([O-])c2ccccc2[n+]1[O-])C(F)(F)F | cytotoxicity | MTT | 24 h | normoxia | 165 ± 10.2 µM
